Measured values collected from several papers.
Lines come from different studies, so protocols differ. ± gives the spread as reported.

| SMILES | system | setting | intrinsic clearance |
| --- | --- | --- | --- |
| CCC1=C(CC)/C(=C/NC23C[C@H]4C[C@@H](C2)C[C@@H](C3)C4)N=C1c1ccc(Cl)[nH]1 | human liver microsomes | 1 µM, pH 7.4 | -56.9 µL/min/mg |
| O=C1c2ccccc2CCN1CCCCN1CCN(c2ccccn2)CC1 | mouse liver microsomes | 0.5 µM | 7.7 mL/min/g |
| CCC1=C(C)/C(=C/NC23C[C@H]4C[C@@H](C2)C[C@@H](C3)C4)N=C1c1ccc(CC)[nH]1 | human liver microsomes | 1 µM, pH 7.4 | -2.35 µL/min/mg |
| C[C@]12C[C@@]34C=CC(=O)[C@@](C)(CCC(=O)Nc5c(O)ccc(C(=O)O)c5O)[C@@H]3[C@H](C[C@@H]1C4)O2 | mouse liver microsomes | 1 µM, pH 7.4, 37 °C, with: NADPH | 13.6 µL/min/mg |
| O=C(Cc1ccc2ccccc2c1)Nc1cc(C2CCC2)[nH]n1 | mouse liver S9 | 1 µM, protein 1 mg/mL | 24.7 ± 1 µL/min/mg protein |
| N#Cc1ccc(Nc2nc(N)cc(Oc3c(F)cc(-c4ccc(C#N)cc4)cc3F)n2)cc1 | human liver microsomes | 1 µM | 18.6 µL/min/mg |
| O=C(Nc1ccc(OC(F)(F)Cl)cc1)c1cnc(N2CC[C@@H](O)C2)c(-c2ccn[nH]2)c1 | rat liver microsomes | 1 µM, pH 7.4, with: shikonin 10 µM | 3.1 ± 0.8 µL/min/mg |
| CC[C@H](C)C(=O)O[C@H]1C[C@@H](C)C=C2C=C[C@H](C)[C@H](CC[C@@H]3C[C@@H](O)CC(=O)O3)[C@H]21 | mouse liver microsomes | 1.0 µM, pH 7.4 | 7520 mL/min/kg |
| O=C1c2ccccc2CCCN1CCCCN1CCN(c2ccccn2)CC1 | mouse liver microsomes | 0.5 µM | 14.6 mL/min/g |
| COc1ccc(-c2nc(N)nc(N)c2OCCCOc2ccccc2CCC(=O)O)cc1 | mouse liver microsomes | 0.5 µM, 48 mg protein/g liver | < 0.5 mL/min/g liver |
| O=C(c1ccc(F)cc1)C1CCN(CCn2c(=O)[nH]c3ccccc3c2=O)CC1 | dog liver microsomes | – | 44.2 mL/min/kg |
| Nc1nc(N)c(OCCCOc2ccccc2CCC(=O)O)c(C2CCCCC2)n1 | human liver microsomes | 39.7 mg protein/g liver | 0.54 mL/min/g liver |
| O=C1O/C(=C\c2cc(F)ccc2OCCN2CCOCC2)c2cc(Cc3cccc(F)c3)[nH]c(=O)c21 | rat liver microsomes | extrapolated in vivo | 31.7 mL/min |
| CCC1=C(CC)/C(=C/NC2CCCCCCC2)N=C1c1ccc(-c2ccc(OC)cc2)[nH]1 | human liver microsomes | 1 µM, pH 7.4 | -35.5 µL/min/mg |
| CCOc1ccc2ccc(=O)oc2c1 | rat hepatocytes | scaled to liver | 232 mL/min/kg |
| C#C[C@]1(O)CC[C@H]2[C@@H]3CCc4cc(O)ccc4[C@H]3CC[C@@]21C | human liver microsomes | additional to UGT1A1 | 119 µL/min/mg |

| SMILES | system | setting | intrinsic clearance |
| --- | --- | --- | --- |
| O=C(NCCN1CCCC1)c1cc(-c2ccc(CN3CCOCC3)cc2)nc2ccc(F)cc12 | rat hepatocytes | – | < 0.5 mL/min/g |
| C[C@@H]1CN(CC(=O)N2CC(C)(C)c3ncc(Cc4ccc(F)cc4)cc32)[C@@H](CN2CCOC[C@H]2C)CN1 | Sprague Dawley rat liver microsomes, male | 1 µM | 19 µL/min/mg |
| O=C1O/C(=C\c2cc(F)ccc2OCCN2CC[C@@H](F)C2)c2cc(Cc3cccc(F)c3)[nH]c(=O)c21 | rat liver microsomes | – | 155 mL/min/g protein |
| C[C@@H]1CN(CC(=O)N2CC(C)(C)c3nc(CO)c(Cc4ccc(F)cc4)cc32)[C@@H](CN2CCOC[C@H]2C)CN1 | microsomes, male mouse liver, CD-1 | 1 µM | 18 ± 3.8 µL/min/mg |
| CCc1ccc(C2=N/C(=C\NC3CCCCCCC3)C(C)=C2C)[nH]1 | mouse liver microsomes | 1 µM, pH 7.4 | -13.1 µL/min/mg |
| Cc1ccc2c(c1)nc(CCc1cccc3cccnc13)n2-c1ccccc1 | rat liver microsomes | 1.5 µM | 2840 mL/min/kg |
| Nc1nc(N)c(OCCCOc2ccccc2CCC(=O)O)c(CCCCO)n1 | human liver microsomes | 39.7 mg protein/g liver | < 0.4 mL/min/g liver |
| O=c1ccc2ccc(O)cc2o1 | monkey liver microsomes | – | 565 µL/min/mg protein |
| Nc1nc(N)c(OCCCOc2ccccc2CCC(=O)O)c(-c2ccccc2)n1 | mouse liver microsomes | 0.5 µM, 48 mg protein/g liver | 1.3 mL/min/g liver |
| Cc1cc2c(c(=O)[nH]1)C(=O)O/C2=C\c1cc(F)ccc1OCCN1CCOCC1 | rat liver microsomes | extrapolated in vivo | 117 mL/min |
| COc1cc2[nH]c(C)c(-c3cccnc3)c(=O)c2cc1Cl | human liver microsomes | 1 µM | 11 µL/min/mg |
| CCC1=C(CC)/C(=C/NC2CCCCCCC2)N=C1c1ccc(Cc2ccc(OC)cc2)[nH]1 | human liver microsomes | 1 µM, pH 7.4 | -10 µL/min/mg |
| C=CC(=O)N1CC2(CCN(c3nc4c(c(-c5c(C)ccc6[nH]ncc56)c3C#N)C[C@H]3C[C@@H]4C3(C)C)C2)C1 | human liver microsomes | – | 231 µL/min/mg |
| CCc1nc(N)nc(N)c1OCCCOc1ccccc1CCC(=O)O | human liver microsomes | 39.7 mg protein/g liver | < 0.4 mL/min/g liver |
| C=CC[C@@H]1/C=C(\C)C[C@H](C)C[C@H](OC)[C@H]2O[C@@](O)(C(=O)C(=O)N3CCCC[C@H]3C(=O)O[C@H](/C(C)=C/[C@@H]3CC[C@@H](O)[C@H](OC)C3)[C@H](C)[C@@H](O)CC1=O)[C@H](C)C[C@@H]2OC | pooled human liver microsomes | – | 0.81 mL/min/mg protein |
| C=CC(=O)N1CC2(CCN(c3nc4c(c(-c5c(C)ccc6[nH]ncc56)c3C#N)CCC(C)(C)C4)C2)C1 | human liver microsomes | – | > 399 µL/min/mg |

A few entries again:
| SMILES | system | setting | intrinsic clearance |
| --- | --- | --- | --- |
| O=C(Cc1ccc2ccccc2c1)Nc1cc(C2CCC2)[nH]n1 | mouse liver S9 | 1 µM, protein 1 mg/mL | 24.7 ± 1 µL/min/mg protein |
| CC[C@H](C)C(=O)O[C@H]1C[C@@H](C)C=C2C=C[C@H](C)[C@H](CC[C@@H]3C[C@@H](O)CC(=O)O3)[C@H]21 | mouse liver microsomes | 1.0 µM, pH 7.4 | 7520 mL/min/kg |
| CCc1nc(N)nc(N)c1OCCCOc1ccccc1CCC(=O)O | human liver microsomes | 39.7 mg protein/g liver | < 0.4 mL/min/g liver |
| C=CC(=O)N1CC2(CCN(c3nc4c(c(-c5c(C)ccc6[nH]ncc56)c3C#N)C[C@H]3C[C@@H]4C3(C)C)C2)C1 | human liver microsomes | – | 231 µL/min/mg |
